# Results gathered from unrelated publications.
# Compare with care: the assays were run in different laboratories. Values joined by “and” are separate records of one study, mostly repeats; a detail may differ. Numbers after ± are the reported error.
SMILES,test,system,conditions,plasma concentration
C[C@@H](O)[C@H]1C(=O)N2C(C(=O)O)=C(S[C@@H]3CN[C@H](C(=O)N(C)C)C3)[C@H](C)[C@H]12,,"BALB/c mouse, male, plasma","intraperitoneal, 100 mg/kg, 6 h",4650 ng/mL
CC(=O)N(C)C1CCN(c2cc(F)cc(NC(=O)c3cc4c(F)ccc(C)c4[nH]3)c2)C1 (stereo not drawn),,CD1 mouse,"intravenous, 1 mg/kg, 1 h",198 ng/mL
Cc1cc([C@H]2C[C@H]3[C@@H](C)SC(N)=N[C@@]3(c3ccc(F)cc3F)CO2)on1,,"male 129/SVE mouse, plasma","subcutaneous, 50 mg/kg, 7 h",0.235 µM
CC(C)c1cc(C(=O)NCCN)c2cnn(C(C)C)c2n1,,"mouse BALB/c female, plasma","intraperitoneal, 50 mg/kg, 0.25 h",1670 ng/mL and 2210 ng/mL and 2280 ng/mL
O=[N+]([O-])c1ccc(-c2ccc(O)cc2)c2cccnc12,,"ICR mouse, male","oral, 5 mg/kg, 1 h",6.39 ng/mL
C[C@H]1O[C@@H](O[C@H]2CC[C@@]3(C)[C@@H](CC[C@]4(C)[C@@H]3C=C[C@]35OC[C@@]6(CCC(C)(C)C[C@H]63)[C@@H](O)C[C@]54C)[C@]2(C)CO)[C@H](O)[C@@H](O[C@@H]2O[C@H](CO)[C@@H](O)[C@H](O)[C@H]2O)[C@H]1O,UHPLC-MS/MS,"mouse, plasma","oral, 50 mg/kg, 12 h, pooled samples",0 ng/mL
CCCCCN1C[C@H](O)[C@@H](O)[C@H](O)[C@@H]1CO,LC-MS/MS,"mouse Hexb-/- total, plasma","30 mg/kg/day, geometric mean",262 ng/mL
Cc1c(C(=O)O)ccc2c3n(nc12)[C@@H]1[C@H](C3)N(CC2CC2)[C@@]2(C(=O)Nc3cc(Cl)ccc32)[C@H]1c1cccc(Cl)c1F,,"female BALB/c nude mouse, SJSA-1 xenograft, plasma","oral, 1 mg/kg twice daily, 4 h",1.08 µM
CSc1cc(C)nc(SC)c1NC(=O)CN1CCN(CCSc2nc3ccccc3[nH]2)CC1.Cl,,"mouse Crl:CD1 (ICR) female, plasma","intranasal, 50 µL of 3.24 mg/mL in 0.01 N HCl daily, 120 min, 7 days dosing",1.3 ng/mL and 0.8 ng/mL and 23 ng/mL and 2.7 ng/mL
c1ccc(-c2nc(N3CCC(c4ccccn4)C3)c3ccccc3n2)nc1 (stereo not drawn),,"mouse, Balb/c female, plasma","oral, 12.5 mg/kg, 0.25 h, mean, added: aminobenzotriazole pretreatment",935 ng/mL
c1csc(CNc2cc[nH]n2)c1,,"mouse, CD-1, male, plasma","oral, 20 mg/kg as HCl salt, 2 h",0.156 µM
CNC(=O)c1cc2c(Oc3ccc(NC(=O)C4(C(=O)Nc5ccc(F)cc5)CC4)cc3)ccnc2cc1OC,LC-MS/MS,"CB.17-SCID mouse, Hs746T xenograft, plasma","oral, 30 mg/kg single dose, 4 h",20.3 µM
Cc1ncsc1-c1ccc(CNC(=O)[C@@H]2C[C@@H](O)CN2C(=O)[C@@H](NC(=O)CCCCCCCCCC(=O)N2CCN(CC[C@H](NC(=O)C3(N)CCN(c4ncnc5[nH]ccc45)CC3)c3ccc(Cl)cc3)CC2)C(C)(C)C)cc1,,"male Swiss albino mouse, plasma","intraperitoneal, 75 mg/kg single dose, maintained over 12 h",> 1 µM
CC(C)(C)c1cc(NC(=O)Nc2ccc(Oc3ccnc4[nH]c(=O)cnc34)cc2F)n(-c2ccccc2)n1,,"NSG mouse, female, tumor","oral, 20 mg/kg, 1 h after last dose",15.1 µM and 4.08 µM and 5.8 µM and 2.52 µM and 7.65 µM
CC(C)n1ncc2c(C(=O)NCC3(C)CNC3)cc(C3CC3)nc21,,"mouse BALB/c female, plasma","intraperitoneal, 50 mg/kg, 2 h",2090 ng/mL and 2010 ng/mL and 2190 ng/mL and 1670 ng/mL
Cc1coc([C@H]2C[C@H]3[C@@H](CF)SC(N)=N[C@@]3(c3ccc(F)cc3F)CO2)n1,,"male 129/SVE mouse, plasma","subcutaneous, 80 mg/kg, 3 h",2.07 µM
CSc1cc(Oc2ccnc3[nH]c(=O)cnc23)ccc1NC(=O)Nc1cc(C(C)(C)C)nn1-c1ccccc1,,"nude mouse, female, tumor","oral, 20 mg/kg, 1 h after last dose",7.07 µM and 6.73 µM and 6.16 µM and 4.99 µM and 6.17 µM
CC(=O)NCc1cc2c(cc1F)C(=O)N(C1CCC(=O)NC1=O)C2 (stereo not drawn),,"CD-1 mouse, male","oral, 10 mg/kg parent drug, 2 h",6.2 ± 2.5 ng/mL
CCN1CCN(Cc2ccc(NC(=O)c3ccc(C)c(NC(=O)c4cncc(-c5cccs5)c4)c3)cc2C(F)(F)F)CC1,LC-MS/MS,"C57BL/6 mouse, plasma","intraperitoneal, 10 mg/kg single dose, 6 h",47 ng/mL and 32 ng/mL
Cc1cc([C@H]2C[C@H]3[C@@H](CF)SC(N)=N[C@@]3(c3ccc(F)cc3F)CO2)on1,,"male 129/SVE wild-type mouse, plasma","subcutaneous, 30 mg/kg, 7 h",0.031 µM
O=C1CCC(N2Cc3cc(CO)c(F)cc3C2=O)C(=O)N1 (stereo not drawn),,"CD-1 mouse, male","oral, 10 mg/kg parent drug, 1 h",30.7 ± 16.3 ng/mL
